Measurements collected from several papers.
Compare with care: the assays were run in different laboratories. Values joined by “and” are separate records of one study, mostly repeats; a detail may differ. ± marks the error that the study gave.
UCHL1: Ubiquitin carboxyl-terminal hydrolase isozyme L1 (UCHL1, Homo sapiens, UniProt P09936)
Chain of UniProt P09936 (whole entry, looked up): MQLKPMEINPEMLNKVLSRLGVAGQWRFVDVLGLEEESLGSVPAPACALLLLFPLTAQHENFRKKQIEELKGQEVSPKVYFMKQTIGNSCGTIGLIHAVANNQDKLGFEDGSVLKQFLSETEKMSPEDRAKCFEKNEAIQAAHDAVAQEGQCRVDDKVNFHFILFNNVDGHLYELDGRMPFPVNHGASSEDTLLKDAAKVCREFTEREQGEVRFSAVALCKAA

Compound | tested on | test | system | setting | scale | endpoint | result
O=C(O)CSc1nnc(Br)n1-c1ccc(C2CC2)c2ccccc12 | – | – | KM mouse, chronic hyperuricaemia model, serum | dose not given | – | AST | 203 U/L and 222 U/L and 122 U/L and 214 U/L and 139 U/L and 193 U/L
CC1(C)S[C@@H]2[C@H](NC(=O)[C@H](N)c3ccc(O)cc3)C(=O)N2[C@H]1C(=O)O | – | – | male Hartley guinea pigs, anaesthetized | intravenous, 20 mg/kg group, baseline before infusion | – | mean blood pressure | 38 ± 0.2 mmHg
Cc1ccc(CCC(=O)Nc2nnc(S(N)(=O)=O)s2)cc1 | – | – | BALB/c mice, plasma | oral, 20 mg/kg, 24 h | – | unbound plasma concentration | not detected
Cl.[2H]C([2H])([2H])CC(=O)c1cnc(NC(=O)C2CC2)cc1Nc1cccc(-c2ncn(C([2H])([2H])[2H])n2)c1OC | – | geometric mean | human | oral, 10 mg single dose, fasted, liquid | – | elimination rate constant | 2.08e-05 s⁻¹
CCOc1c([C@H](C)n2nc(C)c3c(N)ncnc32)cc(Cl)c(F)c1[C@@H]1CNC(=O)C1 | – | – | patients with indolent lymphoma, plasma | oral, 20 mg, day 15, monotherapy | – | half-life geometric mean | 8.6 ± 1.95 h
CO[C@H]1C[C@@H]2CC[C@@H](C)[C@@](O)(O2)C(=O)C(=O)N2CCCC[C@H]2C(=O)O[C@H]([C@H](C)C[C@@H]2CC[C@@H](O)[C@H](OC)C2)CC(=O)[C@H](C)/C=C(\C)[C@@H](O)[C@@H](OC)C(=O)[C@H](C)C[C@H](C)/C=C/C=C/C=C/1C | – | – | healthy adult horses | intravenous, 0.06 mg/kg, 6 h | – | rectal temperature | 37.5 ± 0.1 °C
Cc1ccc([C@@H]2O[C@H](CO)[C@@H](O)[C@H](O)[C@H]2O)cc1Cc1ccc(-c2ccc(F)cc2)s1 | – | – | Japanese type 2 diabetes patients | 100 mg, day 16, 24 h urine collection | reference: baseline | urinary calcium excretion change | 3.54 mg
CC(=O)N(c1ccccc1)c1nc(C=C(C#N)C(=O)NC2CC2)cs1 | UCHL1 | covalent, intact protein LC-MS | – | 12.5 µM | – | labelling | 9.01%
CC(C)(C)NCC(O)c1cc(O)cc(O)c1 (centres unmarked) | – | – | – | – | – | pKa (basic) | 9.7
O=C(c1cccnc1-c1ccncc1)N1CCC(O)(Cc2ccccc2)CC1 | – | – | healthy Japanese adults, plasma | oral, 1200 mg single dose | – | AUClast/dose | 9.48 ng·h/mL/mg
CC1=NN(c2ccc(C)c(C)c2)C(=O)/C1=N\Nc1cccc(-c2cccc(C(=O)O)c2)c1O | – | – | healthy subjects, plasma | oral, 75 mg daily | – | Imax | 28.3 µM
C=CC(=O)Nc1cc(Nc2ncc(C(=O)OC(C)C)c(-c3cn(C)c4ccccc34)n2)c(OC)cc1N(C)CCN(C)C | – | two-compartment PK model | mouse | dose not given | – | central volume of distribution | 131 L
Cc1cc(Nc2ccc(S(F)(F)(F)(F)F)cc2)n2nc(C(C)(F)F)nc2n1 | – | – | Plasmodium vivax malaria patients | oral, 400 mg | – | adverse event Nausea | 0%
O=C(O)CCC(=O)O.[2H]C([2H])([2H])Oc1cc(C)c2[nH]ccc2c1CN1CC[C@@H](C2CC2)C[C@H]1c1ccc(C(=O)O)cc1 | – | – | healthy Chinese subjects | 200 mg, single ascending dose | – | TEAE decreased white cells | 0%
CCc1cc(C(=O)NC)c2nccc(N3CCc4c(cc(Cn5ccnc5)cc4-c4cn(C)nc4C(F)(F)F)C3=O)c2c1 | – | – | Sprague Dawley rats | oral, 100 mg/kg once daily, 7 days | reference: vehicle | serum GGT change | -50%
O=C1NCCc2nc(OCc3cccc(F)c3)ccc21 | – | measured: Miosis | Sprague-Dawley rat, male | oral, 100 mg/kg, 1 h, score 0 none to 2 full | direction not given | Irwin test score | 0
CCN1/C(=C/C(C)=O)Sc2ccc(F)cc21 | – | – | cynomolgus monkey | oral, 100 mg/kg, 4 h post-dose | reference: pre-dose | diastolic blood pressure change | 101 ± 3%
CNC(=O)c1ccc(-c2cnc3ncc(Cc4ccc5ncccc5c4)n3n2)cc1F | – | measured: Cough, all grades | cancer patients | oral, dose not given, dose escalation, any causality | – | patients with adverse event | 18%
NCc1cc2c(cc1F)C(=O)N(C1CCC(=O)NC1=O)C2 (centres unmarked) | – | – | male Sprague-Dawley rat, whole blood | 3 h | – | remaining compound | 92.5%
C[N+]1(C)[C@@H]2C[C@@H](OC(=O)C(O)(c3cccs3)c3cccs3)C[C@H]1[C@@H]1O[C@@H]12 | – | equilibrium dialysis | dog, plasma | – | – | fraction unbound | 0.81
CCCc1c(-c2ccc(O)cc2)nn(-c2ccc(O)cc2)c1-c1ccc(O)cc1 | – | – | rat, Long-Evans, female, serum | subcutaneous, 2 mg/kg single dose | – | aglycone share of Cmax | 75%
CC1(C)CCC(CN2CCN(c3ccc(C(=O)NS(=O)(=O)c4ccc(NCC5CCOCC5)c([N+](=O)[O-])c4)c(Oc4cnc5[nH]ccc5c4)c3)CC2)=C(c2ccc(Cl)cc2)C1 | – | – | patients on VA-based chemotherapy | oral, dose not given, added: triazole antifungals | reference: without triazoles | C0 fold change | 1
Cc1c(Br)cc(NC(=O)NS(=O)(=O)O)cc1Br | – | – | CD-1 mice, whole blood | intravenous, 2 mg/kg | – | C0 | 13.4 µM
C#Cc1cccc(Nc2ncnc3cc(OCCOC)c(OCCOC)cc23)c1 | – | – | brain over plasma | 100 mg/kg, 2 h | reference: unbound brain over unbound plasma | Kp,uu | 0.3

Compound | tested on | test | system | setting | scale | endpoint | result
CNC(=O)c1cc(Oc2ccc(NC(=O)Nc3ccc(Cl)c(C(F)(F)F)c3)cc2)ccn1 | – | – | NOD-SCID mouse, serum | ip, 30 mg/kg | – | AST | 135 ± 90.8 U/L
Cc1nc(-c2ccc(OCC(C)C)c(C#N)c2)sc1C(=O)O | – | – | healthy Chinese subjects | oral, 40 mg, fed, single dose | – | subjects with grade 2 AEs | 2.5%
[18F]c1ccc(-c2ccc3c(c2)[nH]c2ccncc23)cn1 | – | ex vivo biodistribution | B6SJL mouse, normal, cortex | intravenous, 30 min | – | SUV | 0.471 ± 0.155
O=C(Nc1ccc(OC(F)(F)Cl)cc1)c1cnc(N2CC[C@@H](O)C2)c(-c2ccn[nH]2)c1 | – | per treatment cycle, measured: ALT increase | human patients | oral, dose not given, 28 day cycle, dose-finding study | – | grade ≥2 event rate | 0.9%
COc1ncc(-c2nc3c(n2C(C)C)[C@H](c2ccc(Cl)cc2)N(c2cc(Cl)cn(C)c2=O)C3=O)c(OC)n1 | – | – | human patients, plasma | oral, 25 mg, high-dose arm, cycle 1 day 1 | – | AUC(0-t) geometric mean | 1770 ng·h/mL
OC[C@H]1O[C@@H](c2ccc(Cl)c(Cc3ccc(O[C@H]4CCOC4)cc3)c2)[C@H](O)[C@@H](O)[C@@H]1O | – | – | Japanese type 1 diabetes patients, blood | 25 mg, day 28 | reference: baseline | change in AST | 2 U/L
CCCCCN1C[C@H](O)[C@@H](O)[C@H](O)[C@@H]1CO | – | – | Hexb-/- mouse | 30 mg/kg/day | – | brain/plasma ratio | 0.15
C[C@H]1CN(C(=O)CC#N)[C@]12CCN(c1ncnc3[nH]ccc13)C2 | – | – | healthy adult humans | oral, dose not given, all compound groups | – | participants with TEAEs | 18.8%
Cn1ccnc1Sc1ccc(C=C(C#N)C(N)=O)cc1[N+](=O)[O-] | UCHL1 | covalent, intact protein LC-MS | – | 12.5 µM | – | labelling | 10.8%
O=C(O)C(F)(F)F | – | 19F NMR chemical shift titration | – | – | lower pKa than literature | pKa shift vs literature | 0.5 to 1 pKa units
COCc1cc(C(=O)Nc2cc([C@H]3CC[C@@H](OC(=O)NC(C)C)C3)[nH]n2)n(C)n1 | – | – | OVCAR-3 xenograft, NOD/SCID gamma mice, plasma | oral, 25 twice daily, tumour growth inhibition study | – | unbound Cmax | 0.559 µM
CCC(CC)C(=O)Oc1cccc(C(O)CCN)c1.O=CO (centres unmarked) | – | scotopic ERG | BALB/cJ mice | intraperitoneal, 10 mg/kg, 4 h dark adaptation, added: 10,000 lx photobleach, 10 min | – | ERG a-wave amplitude | 41 µV and 75 µV and 70 µV and 24 µV and 25 µV and 29 µV
Cn1c(C(F)(F)F)cc(=O)n(-c2cc(Oc3cccnc3OCC(=O)O)c(Cl)cc2F)c1=O | – | – | beagle dog, female, plasma | oral capsule, 300 mg/kg/day epyrifenacil, day 1, 90-day study | – | Tmax | 9 h
CC(C)(C)c1ccc(C(O)CCCN2CCC(C(O)(c3ccccc3)c3ccccc3)CC2)cc1 (centres unmarked) | – | – | male Hartley guinea pigs, anaesthetized | intravenous, 0.3 mg/kg over 10 min, after infusion | – | mean blood pressure | 33 ± 0.1 mmHg
Cc1cccc(Cn2cc(CO)c3cnccc32)c1 | – | – | F344 rat, male, liver | oral, 100 mg/kg/day, 2 days | – | bile ducts per triad | 3.8 and 4.5 and 1.5
CCC(=O)N(CCC(c1ccc2c(c1)OCO2)c1ccccc1OC)Cc1ccccc1 (centres unmarked) | – | – | female athymic nude mouse, blood | i.p., 60 mg/kg twice daily, 14 days, group mean | – | EO | 2.58%
CC1(C(=O)O)CCC(C(=O)Nc2ccc(Nc3ccccc3)cc2)C1(C)C (centres unmarked) | – | – | sheep erythrocytes | 1 h, pH 7.5 | – | maximum haemolysis | 2.2%
COc1c(N2C[C@@H]3CCCN[C@@H]3C2)c(F)cc2c(=O)c(C(=O)O)cn(C3CC3)c12 | – | – | male Hartley guinea pigs, anaesthetized | intravenous, 10 mg/kg group, baseline before infusion | – | mean blood pressure | 36 ± 0.2 mmHg
CC(C)(C(=O)N1CCOc2c(C#N)cncc2C1)C(F)F | – | measured: general and administration site disorders | human, both sexes | oral, 20 mg once daily, 14 days, multiple ascending dose | – | subjects with TEAE | 0%
CCOc1c([C@H](C)n2nc(C)c3c(N)ncnc32)cc(Cl)c(F)c1[C@@H]1CNC(=O)C1 | – | – | rat plasma | 800 ng/mL, 3 h, room temperature | reference: nominal concentration | stability relative error | 10%
C[C@H]1Oc2cc(cnc2N)-c2c(nn(C)c2C#N)CN(C)C(=O)c2ccc(F)cc21 | – | – | human patients, plasma | oral, cycle 2 day 1, median, added: avelumab | – | Tlast | 24 h
C=CC(=O)Nc1cc(Nc2nccc(-c3cn(C4CC4)c4ccccc34)n2)c(OC)cc1N(C)CCN(C)C | – | – | BALB/c nude mouse, LU0387 xenograft, blood | oral, 40 mg/kg | – | EO percentage | 1.24 ± 0.172%
COc1cc2[nH]c(C)c(-c3cc4ccccc4o3)c(=O)c2cc1Cl | – | – | PAMPA | pH 7.4 | – | Papp | 73 ×10⁻⁶ cm/s

Excerpt of the above:
Compound | tested on | test | system | setting | scale | endpoint | result
CC(C)(C)NCC(O)c1cc(O)cc(O)c1 (centres unmarked) | – | – | – | – | – | pKa (basic) | 9.7
O=C(c1cccnc1-c1ccncc1)N1CCC(O)(Cc2ccccc2)CC1 | – | – | healthy Japanese adults, plasma | oral, 1200 mg single dose | – | AUClast/dose | 9.48 ng·h/mL/mg
CC1=NN(c2ccc(C)c(C)c2)C(=O)/C1=N\Nc1cccc(-c2cccc(C(=O)O)c2)c1O | – | – | healthy subjects, plasma | oral, 75 mg daily | – | Imax | 28.3 µM
C=CC(=O)Nc1cc(Nc2ncc(C(=O)OC(C)C)c(-c3cn(C)c4ccccc34)n2)c(OC)cc1N(C)CCN(C)C | – | two-compartment PK model | mouse | dose not given | – | central volume of distribution | 131 L
